{"data": "Results from different studies", "note": "Parts stem from different laboratories: compare values within a part only. Changes are numbered by the printed parent chain."}
{"data": "Set 1", "target": "Sal-like protein 4, full length isoform A (SALL4, Homo sapiens, UniProt Q9UJQ4, residues 1-1053)", "technique": "universal PBM", "form": "double-stranded DNA, one strand shown", "matrix": "in vitro", "tested at": "600 nM", "setting": "8-mer, flanks averaged, mean of replicates", "direction": "higher = stronger binding", "sequence of UniProt Q9UJQ4 (whole entry, looked up)": "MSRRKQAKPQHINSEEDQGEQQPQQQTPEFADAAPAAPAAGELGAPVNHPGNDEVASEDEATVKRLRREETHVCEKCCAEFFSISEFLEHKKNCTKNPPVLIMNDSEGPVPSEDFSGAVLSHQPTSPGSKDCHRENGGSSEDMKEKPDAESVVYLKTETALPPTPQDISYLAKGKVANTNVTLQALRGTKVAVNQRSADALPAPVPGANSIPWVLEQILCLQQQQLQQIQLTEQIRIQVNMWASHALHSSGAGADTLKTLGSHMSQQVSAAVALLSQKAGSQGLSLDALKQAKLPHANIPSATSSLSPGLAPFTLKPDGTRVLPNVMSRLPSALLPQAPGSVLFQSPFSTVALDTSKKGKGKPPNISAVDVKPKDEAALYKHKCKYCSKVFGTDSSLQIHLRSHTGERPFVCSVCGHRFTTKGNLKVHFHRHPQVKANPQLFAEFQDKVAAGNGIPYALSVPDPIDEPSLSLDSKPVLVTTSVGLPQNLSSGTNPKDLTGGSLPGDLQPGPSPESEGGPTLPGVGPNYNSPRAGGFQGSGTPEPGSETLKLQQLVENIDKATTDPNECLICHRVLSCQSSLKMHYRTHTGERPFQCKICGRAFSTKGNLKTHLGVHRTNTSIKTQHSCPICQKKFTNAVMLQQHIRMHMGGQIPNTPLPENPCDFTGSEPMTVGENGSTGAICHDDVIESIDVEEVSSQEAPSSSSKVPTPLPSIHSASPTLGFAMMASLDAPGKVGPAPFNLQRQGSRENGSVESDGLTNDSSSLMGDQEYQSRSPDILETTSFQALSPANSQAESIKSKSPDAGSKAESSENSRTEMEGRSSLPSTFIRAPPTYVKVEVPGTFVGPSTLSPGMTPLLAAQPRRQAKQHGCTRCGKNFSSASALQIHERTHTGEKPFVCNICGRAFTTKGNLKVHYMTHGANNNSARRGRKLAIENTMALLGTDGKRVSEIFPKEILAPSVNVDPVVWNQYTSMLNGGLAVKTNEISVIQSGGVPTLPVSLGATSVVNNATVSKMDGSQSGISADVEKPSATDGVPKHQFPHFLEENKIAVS"}
{"Oligonucleotide": "AGCCCGTG", "E-score": -0.339}
{"Oligonucleotide": "AAGCTAAC", "E-score": 0.0204}
{"Oligonucleotide": "GTTCCTTA", "E-score": -0.0322}
{"Oligonucleotide": "ATGTCTAA", "E-score": 0.281}
{"Oligonucleotide": "AGAGATCG", "E-score": -0.17}
{"Oligonucleotide": "ATTGCCCC", "E-score": 0.0764}
{"Oligonucleotide": "GATCGCCC", "E-score": -0.314}
{"Oligonucleotide": "GTATAGGA", "E-score": 0.126}
{"Oligonucleotide": "GCCAGCGC", "E-score": -0.309}
{"data": "Set 2", "target": "Histone acetyltransferase KAT6A, winged helix 2, GST fusion (KAT6A, Homo sapiens, UniProt Q92794, residues 85-181)", "technique": "protein binding microarray", "form": "double-stranded DNA, one strand shown", "matrix": "in vitro", "tested at": "not given", "setting": "8-mer, flanks averaged, mean of 2 arrays, mostly near background", "baseline": "not given", "direction": "higher = stronger binding", "Residues (chain)": "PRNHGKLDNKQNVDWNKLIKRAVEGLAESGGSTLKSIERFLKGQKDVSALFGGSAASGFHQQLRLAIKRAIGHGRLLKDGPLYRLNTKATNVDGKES"}
{"Oligonucleotide": "CAAGCTGC", "E-score": 0.12}
{"Oligonucleotide": "CCTGCCAC", "E-score": -0.0881}
{"Oligonucleotide": "GAATCCCA", "E-score": 0.0104}
{"Oligonucleotide": "GTGATCAA", "E-score": 0.0772}
{"Oligonucleotide": "CCAGTTAA", "E-score": 0.0943}
{"Oligonucleotide": "GGATCATA", "E-score": -0.0212}
{"Oligonucleotide": "AGGGCCCA", "E-score": 0.0302}
{"data": "Set 3", "target": "CCNF, cyclin fold, Cln2 fusion (human)", "technique": "yeast growth competition, sequencing", "matrix": "yeast", "setting": "strong parent motif", "baseline": "not given", "direction": "higher = stronger binding", "starting sequence": "RB1 docking peptide (human); PKPLKKLRFDIEG"}
{"Variant": "PKPLVKLRFDIEG [K5V]", "normalised enrichment score": 0.418}
{"Variant": "PKPLKKLRFDIYG [E12Y]", "normalised enrichment score": 2.34}
{"Variant": "PKPQKKLRFDIEG [L4Q]", "normalised enrichment score": 3.65}
{"Variant": "PKPLAKARFDIEG [K5A L7A]", "normalised enrichment score": 0.336}
{"data": "Further values, each from its own experiment"}
{"Molecule": "PhoQ, residues 284 288 289 292 302 303 SCKMEA", "target": "PhoP, residues 12 14 15 18 19 LYHSL (Escherichia coli, UniProt P23836)", "assay": "Sort-seq, refers to: YFP reporter", "system": "E. coli", "conditions": "PhoQ-PhoP variant library, with: 10 µM Mg2+", "how to read": "baseline: high Mg2+ state, higher = stronger signaling", "quantity": "fold induction", "value": 15.4}
{"note": "Some of these lines once more (set 2):"}
{"Oligonucleotide": "AGGGCCCA", "E-score": 0.0302}
